# Published values pooled from the literature.
# Parts stem from different laboratories: compare values within a part only.

# Series 1
# Target: RNA binding protein fox-1 homolog 2, RRM domain, GST-SBP tag (RBFOX2, Homo sapiens, UniProt O43251-10, residues 100-194)
# Method: RNA Bind-n-Seq
# Molecule type: RNA
# Matrix: in vitro
# Tested at: 365 nM
# Setting: natural RNA segment, single round, ends assumed
# Relative to: no-protein control
# Reading: higher = stronger binding
# Shared flanks, not repeated: GGGAGUUCUACAGUCCGACGAUC … UGGAAUUCUCGGGUGCCAA
# Construct (chain): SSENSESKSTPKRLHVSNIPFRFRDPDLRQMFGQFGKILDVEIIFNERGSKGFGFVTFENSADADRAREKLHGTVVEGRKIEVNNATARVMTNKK
Oligonucleotide,RBNS enrichment (R)
CCUUUUUUUGACACCUGCGCUAGGUUCUUGUAUGCUGGCUUUUCUUAAAGGAACAGCAGAGUAGAAAAGAGGUUGAGAAUGUUUUCUAGCAGGCAGAAUGUGCAUACAUG,2.63
UACCUUGUAUCUUGGUCUGGAUUCUCUCUCUGAGACCCCGGAUUUUACUUUCUCUUUGGAGGGCGCUGGGACAUACAUCUCUCAAUCCAGCUUCCUCCGCAUCCUCCCAU,0.578
GGCUGUCAAGAGAAUCUAGGUCUGCUAUGACUUAUUCCAAGUCCUCAGAGUUAAGUCAAGGAGUGUUCUUUGCCCCAGUCUCCCUAAGACAGUGCCUAUACAUUGGACAA,0.273
AAUCCCAAGUCGAAAUCACCUCUUGUUUUAAACAAGAAUGAAUCAUUACUGUGUAUGUUAGGGUAUUAAAACUGUUUCACCAGUACAGUGAAAGUUGUUUCAACAUUUUA,0.403
CAAAUCAAAGCUUCCUUCAAAUAGAUGGUCCCAUAGUCUGUAUCCAAAUAAUGAAUCUUCGGGUGUUUCCCUUUAGCUAAGCACAGAUCUACCUUGGUGAUUUGGACCCU,0.436
GACUGAGUUCCACCUCCUGAAGCCAGACUCCACCUCUUGUGCUUUUUUGCUUGGGAAAAAGGAGUUUUUCUUUAGAAACAGUGCCAAGAAUGAUAUAAACUACUUUUAAC,0.417
CUUGUUUAGGGCCAGCAACAGGGGUUCUGGCCCUGUUGAAACUUUAGUCCAGCCCUCUCGCAAUGGCUUGUGACUCACAGGAUUGCACCAUCCCCACUGCUAACUUGGGG,0.608
AGUGCAAUAUAUUUUGUAUGCAAACAGUUUCAAUAAAGUUUGAUCUUCCUCUGCUAAAUUGAUGUUGAUGCAAUCCUUACAAUGAUUGCUUUUAAAAUUUUAAGAUAGGA,0.279

# Series 2
# Target: HLA class I histocompatibility antigen, A alpha chain, allele A*80:01 (Homo sapiens, UniProt P04439)
# Observed: peptide-MHC binding
# Molecule type: peptide
# Tested at: concentration not given
Sequence,binding
GSEEIKSLF,inactive
LVRDITESL,inactive
ITAVNRYFK,inactive
DSPATLSAY,inactive

# Series 3
# Target: UBE2D3 UBC core domain (UniProt P61077)
# Method: yeast two-hybrid
# Matrix: yeast
# Setting: mostly zero background
# Relative to: not given
# Reading: higher = stronger interaction
# B1: TRIM5 RING domain (UniProt Q9C035); chain ILVNVKEEVTCPICLELLTQPLSLDCGHSFCQACLTANHKKSMLDKGESSCPVCRISYQPENIRP
# B2: RNF38 RING domain (UniProt Q9H0F5); chain PNNHQSEQTLCVVCMCDFESRQLLRVLPCNHEFHAKCVDKWLKANRTCPICRADASEVHRDS
# B3: TRIM4 RING domain (UniProt Q9C037); chain EAEDIQEELTCPICLDYFQDPVSIECGHNFCRGCLHRNWAPGGGPFPCPECRHPSAPAALRP
# B4: TRIML1 RING domain (UniProt Q8N9V2); chain LMENLREELTCFICLDYFSSPVTTECGHSFCLVCLLRSWEEHNTPLSCPECWRTLEGPHFQS
# B5: DTX4 RING domain (UniProt Q9Y2E6); chain QKVRHPPDEDCTICMERLTAPSGYKGPQPTVKPDLVGKLSRCGHVYHIYCLVAMYNNGNKDGSLQCPTCKTIYGVKTGTQ
# Residues (chain): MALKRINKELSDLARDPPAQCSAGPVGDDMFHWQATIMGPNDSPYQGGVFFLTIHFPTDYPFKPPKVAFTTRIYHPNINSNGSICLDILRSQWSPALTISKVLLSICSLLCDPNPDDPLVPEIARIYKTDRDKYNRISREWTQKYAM
Sequence,lacZ reporter activity
B1 (TRIM5 RING domain),0
ASLPTSEEDLCPICYAHPISAVFQPCGHKSCKACINQHLMNNKDCFFCKTTIVSVEDWE (RNF123 RING domain (UniProt Q5XPI4)),0
GAAPGPEAAECLVCSELALLVLFSPCQHRTVCEECARRMKKCIRCQVVVSKKLRPD (MIB2 RING domain (UniProt Q96AX9)),0
B2 (RNF38 RING domain),0
B3 (TRIM4 RING domain),0
B4 (TRIML1 RING domain),0
B5 (DTX4 RING domain),0

# Series 4
# Target: Interferon regulatory factor 5, full length, phosphomimetic (IRF5, Homo sapiens, UniProt Q13568-2, residues 1-514, S451D/S453D/S456D/S462D)
# Method: protein-binding microarray
# Molecule type: double-stranded DNA, one strand shown
# Matrix: in vitro
# Tested at: 940 nM top
# Setting: 60-bp whole probe
# Together with: salmon DNA 0.4 mg/ml
# Relative to: random background probes
# Reading: higher = stronger binding
# Shared flanks, not repeated: GCCTAGCAC … GTCTTGATTCGCTTGACGCTGCTG
Oligonucleotide,fitted relative affinity
TTATGACTGGGTATCGGTTAGTGCTAG,3.48 z-score
GACGAACTGGGGACAGGAGACGTGCTA,0.554 z-score
TCAGCTCTGGCACCTCTAACTGTGCTA,-0.0933 z-score
GTCGGACTGGACACTGGGGACGTGCTA,-0.601 z-score
GACGAATTGAGTCTCGAGACGTGCTAG,0.883 z-score
GACGATCTCAGCCTGGAGACGTGCTAG,0.0534 z-score
GACTGACTGGGGACTGGGGACGTGCTA,-0.19 z-score
TAAGGTTCCGGTTTCGGTTAGTGCTAG,9.5 z-score

# Some of these lines once more (series 4):
Oligonucleotide,fitted relative affinity
TCAGCTCTGGCACCTCTAACTGTGCTA,-0.0933 z-score
GTCGGACTGGACACTGGGGACGTGCTA,-0.601 z-score
GACGAATTGAGTCTCGAGACGTGCTAG,0.883 z-score
GACGATCTCAGCCTGGAGACGTGCTAG,0.0534 z-score
